Published values from different studies.
Every numbered part comes from another study and shows a few of its results, in no order.

Series 1
Target: PABPC1L2, full length, GST fusion (mouse, UniProt A0ABA7IW68)
Method: RNAcompete
Form: RNA
Sample: in vitro
Concentration: 20 nM
Notes: 7-mer, probes averaged, single round
Relative to: mean of 7-mers
Reading: higher = stronger binding
Measurement: 7-mer Z-score
Residues (chain): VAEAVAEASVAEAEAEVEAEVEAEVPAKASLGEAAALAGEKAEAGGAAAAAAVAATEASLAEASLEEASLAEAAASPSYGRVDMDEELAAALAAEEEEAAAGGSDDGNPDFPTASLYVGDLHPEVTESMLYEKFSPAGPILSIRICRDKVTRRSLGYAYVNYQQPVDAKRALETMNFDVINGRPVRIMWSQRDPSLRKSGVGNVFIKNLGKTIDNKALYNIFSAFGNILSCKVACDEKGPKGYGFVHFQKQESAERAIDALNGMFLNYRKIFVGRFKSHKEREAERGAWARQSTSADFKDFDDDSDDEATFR
UAUAGCC: -0.0536
UGUACAC: -0.278
AGCGGAG: 0.0823
UCGAAAA: 3.42
AUCACUG: -0.0699
UGUGAUU: -0.284
GGCACUA: 0.249
CCGCUCU: -0.373
ACGAUGG: 0.122
UCUAACG: -0.318
UUUUCGU: -0.4
UCCACAC: -0.244
GGUCUCU: -0.336
CGCCUAU: -0.335
AAGUAUA: 0.129
AUUUCUU: -0.258
GUGUGGG: 0.0189
AAUUUAA: 0.416
CGCAGCC: -0.331
UACAAGU: -0.0826
UGCCGAU: -0.171
CGGAAAU: 0.182
CACCAAC: -0.128
UCGGAGA: -0.0736

Series 2
Target: Ras GTPase-activating protein-binding protein 1, RRM domain (G3BP1, Homo sapiens, UniProt Q13283)
Sequence of UniProt Q13283 (whole entry, looked up): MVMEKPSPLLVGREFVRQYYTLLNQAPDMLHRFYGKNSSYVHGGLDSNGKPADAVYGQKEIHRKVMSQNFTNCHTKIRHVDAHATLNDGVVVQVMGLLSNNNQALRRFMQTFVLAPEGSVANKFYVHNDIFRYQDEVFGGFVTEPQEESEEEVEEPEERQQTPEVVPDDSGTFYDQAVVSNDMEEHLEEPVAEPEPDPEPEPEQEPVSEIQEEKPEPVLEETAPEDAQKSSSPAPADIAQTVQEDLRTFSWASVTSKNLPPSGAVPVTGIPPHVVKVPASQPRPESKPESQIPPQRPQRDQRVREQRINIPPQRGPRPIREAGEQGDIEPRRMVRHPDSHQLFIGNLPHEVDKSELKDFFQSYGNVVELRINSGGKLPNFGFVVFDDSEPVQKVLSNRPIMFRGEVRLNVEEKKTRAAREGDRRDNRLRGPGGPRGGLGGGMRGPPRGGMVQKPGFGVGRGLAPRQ
Method: RNA Bind-n-Seq
Form: RNA
Sample: in vitro
Concentration: 1 µM
Notes: whole 134-nt RNA, ends assumed
Together with: 150 mM KCl
Relative to: input library
Reading: higher = stronger binding
Measurement: log2 enrichment
Constant ends, left off below: GGGAGUUCUACAGUCCGACGAUC … UGGAAUUCUCGGGUGUCAAGG
AAGUCCUGUGCUACACAUCGUAUGUACCGAAUCGGCCCCGGCCCCGGGCCCCGGGGAAAGUAUUAUGUUACGCCGUUCGGAUCUGCACUU: -1.05
UCACUUUAGAGGAGGAUCUGAUGGAUAUGGCAGUGGACGUGGAUUUGGGGAUGGCUAUAAUGGGUAUGGAGGAGGACCUGGAGGUGGCAA: -0.761
CUGUGCUACACAUCGUAUGUACCGAAUCGGGUUUUUUUGGGUUUUUUUGGGGUUUUUUUGGGAAAGUAUUAUGUUACGCCGUUCGGAUCU: -0.157
GUCCUGUGCUACACAUCGUAUGUACCGAAUCGGGGAAAAAGGGAAAAAGGGAAAAAGGGAAAGUAUUAUGUUACGCCGUUCGGAUCUGCA: 0.122
CUCAAGUCCUGUGCUACACAUCGUAUGUACCGAAUCGGGAAGGGAAGGGAAGGGAAAGUAUUAUGUUACGCCGUUCGGAUCUGCACUUCC: 1.18
GCAGGAAGUAAAAACAAAUGGAAAUGCUUCGGAUAGUGGCAGGGGUGGGGGUUGCUAAGGAAAGGGUGGGAUGCGAGUGGGUAAAGAGUU: 1.47
UAACUUUAGAGGAGGAUCUGAUGGAUAUGGCAGUGGAAGUGGAUUUGGGGAUGGCUAUAAUGGGUAUGGAGGAGGACCUGGAGGUGGCAA: -0.734
AAGUCCUGUGCUACACAUCGUAUGUACCGAAUCGGAAAGGAAAAAAAGGUUUUUGGAAAGUAUUAUGUUACGCCGUUCGGAUCUGCACUU: -0.165
UGUCCAGCUCUGAAGGGCAAAGUGCAGAAGAUCCUAAUCUGGAAGUGGGGUCAGCCACCAUCUCCCACACCAGUGCCUCGGCCUCCAGAU: -0.0753
AAGUCCUGUGCUACACAUCGUAUGUACCGAAUCGGGUUUGGGAAAAAGGGAAAGGGAAAGUAUUAUGUUACGCCGUUCGGAUCUGCACUU: 0.712

Series 3
Target: Sal-like protein 4, full length isoform A (SALL4, Homo sapiens, UniProt Q9UJQ4, residues 1-1053)
Sequence of UniProt Q9UJQ4 (whole entry, looked up): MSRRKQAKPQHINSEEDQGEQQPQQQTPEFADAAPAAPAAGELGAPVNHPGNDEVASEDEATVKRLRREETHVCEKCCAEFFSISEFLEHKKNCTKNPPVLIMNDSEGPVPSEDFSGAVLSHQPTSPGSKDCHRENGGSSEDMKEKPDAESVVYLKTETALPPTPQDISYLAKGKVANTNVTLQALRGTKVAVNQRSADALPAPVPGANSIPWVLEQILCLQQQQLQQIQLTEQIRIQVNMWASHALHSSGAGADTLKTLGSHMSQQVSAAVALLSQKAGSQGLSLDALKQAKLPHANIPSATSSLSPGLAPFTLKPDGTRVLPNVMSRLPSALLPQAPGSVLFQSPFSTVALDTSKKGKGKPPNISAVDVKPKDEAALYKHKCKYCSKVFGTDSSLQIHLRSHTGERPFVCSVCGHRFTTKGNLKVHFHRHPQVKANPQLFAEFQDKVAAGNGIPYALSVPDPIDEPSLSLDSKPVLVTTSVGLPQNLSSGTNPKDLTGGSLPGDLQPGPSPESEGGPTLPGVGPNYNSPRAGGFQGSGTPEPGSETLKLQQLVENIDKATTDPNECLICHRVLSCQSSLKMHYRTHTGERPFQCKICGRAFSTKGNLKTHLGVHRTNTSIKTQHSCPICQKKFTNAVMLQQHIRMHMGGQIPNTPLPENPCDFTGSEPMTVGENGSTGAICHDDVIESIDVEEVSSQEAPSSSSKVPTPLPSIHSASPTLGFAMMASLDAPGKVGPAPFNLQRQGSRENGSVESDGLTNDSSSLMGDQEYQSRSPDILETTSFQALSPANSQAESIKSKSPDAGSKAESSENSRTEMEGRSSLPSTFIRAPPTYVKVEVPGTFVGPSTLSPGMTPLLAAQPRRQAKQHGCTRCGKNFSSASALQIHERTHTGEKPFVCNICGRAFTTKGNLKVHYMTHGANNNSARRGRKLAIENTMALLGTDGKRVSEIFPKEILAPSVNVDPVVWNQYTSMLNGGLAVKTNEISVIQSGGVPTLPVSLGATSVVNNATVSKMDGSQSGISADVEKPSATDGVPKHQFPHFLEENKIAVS
Method: universal PBM
Form: double-stranded DNA, one strand shown
Sample: in vitro
Concentration: 600 nM
Notes: 8-mer, flanks averaged, mean of replicates
Reading: higher = stronger binding
Measurement: E-score
AGCAATAA: 0.294
ACGCGCAT: -0.035
GCTTGTAA: 0.14
CTGGATAC: -0.0925
AACATTTG: 0.15
CGATTTTC: 0.133
GGTTAACC: -0.149
AATACGAC: 0.128
AATTGGCT: 0.17
CCGCCGGA: -0.276
GGGCATTA: -0.0698
GACTCAAC: -0.0459
TCACCCCA: 0.0257
ACTGTAGA: 0.104
ACCTCACT: 0.0152
AAACCTCA: -0.0413
ATTTAGGA: 0.155
AGGCACTG: -0.0755
GACCCGGC: -0.334
GTTATAAC: 0.248
GCACAGCA: -0.164
CATAGCGC: 0.124
AAATGAAT: 0.369
CATGAAAA: 0.241
ATGTTACG: 0.136

Series 4
Target: Histone acetyltransferase KAT6A, both winged helices, GST fusion (KAT6A, Homo sapiens, UniProt Q92794, residues 1-181)
Method: protein binding microarray
Form: double-stranded DNA, one strand shown
Sample: in vitro
Concentration: not given
Notes: 8-mer, flanks averaged, mean of 2 arrays, mostly near background
Relative to: not given
Reading: higher = stronger binding
Measurement: E-score
Construct (chain): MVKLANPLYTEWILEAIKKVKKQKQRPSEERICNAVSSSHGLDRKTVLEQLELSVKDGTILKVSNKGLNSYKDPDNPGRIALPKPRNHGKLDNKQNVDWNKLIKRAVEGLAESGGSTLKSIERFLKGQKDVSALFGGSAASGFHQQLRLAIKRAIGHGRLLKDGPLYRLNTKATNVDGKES
CTCGGTTC: -0.0934
CCGAAAAC: 0.139
AACTTCCC: -0.0499
TCACTAAA: -0.0769
CTTATAAA: -0.0567
ACTCAATA: -0.156
AGGTGCTC: -0.171
GGTCCTGA: 0.0325
ACCCCCCG: 0.178
GTAGCGCA: 0.244
ATCTTCTG: -0.0257
CAAGTCCG: 0.0824
AAGGACAC: -0.121
GGCGTGGA: 0.108
GGCGTATA: 0.174
CGCTTTTA: 0.292

Series 5
Target: RNA binding protein fox-1 homolog 2, RRM domain, GST-SBP tag (RBFOX2, Homo sapiens, UniProt O43251-10, residues 100-194)
Method: RNA Bind-n-Seq
Form: RNA
Sample: in vitro
Concentration: 365 nM
Notes: natural RNA segment, single round, ends assumed
Relative to: no-protein control
Reading: higher = stronger binding
Measurement: RBNS enrichment (R)
Constant ends, left off below: GGGAGUUCUACAGUCCGACGAUC … UGGAAUUCUCGGGUGCCAA
Construct (chain): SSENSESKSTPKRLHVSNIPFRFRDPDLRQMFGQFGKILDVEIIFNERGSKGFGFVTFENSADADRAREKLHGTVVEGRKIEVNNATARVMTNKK
GAUACAAGAGCCCAUCUCUUCUCCUCACCUCACUGGAGCCACAGAAGCCAGGCAGCAGCUACAGGAGUUAUCAUCUGUGUCUUUUACCAUGAUUUGAUUUGUGUUCUCAA: 0.311
CAGACUAUAAUAUUCAUAUUUAAACAAAGCAAUUUUUUUUAUUACUAAACAAGGUUUUUAUGAAUAAUAGCAUUGAUAUAUAUAUAUUAUAUAUCACCCUUUAGAUCUUG: 0.664
CGUUUUUAUAUUACUUUUGUAAAUAUUCUUGUCCACAUUCUACUUCAGCUUUGGAUGUGGUUACCGAGUAUCUGUAACCCUUGAAUUUCUAGACAGUAUUGCCACCUCUG: 0.706
UUUUCCUGCAUUGUAAUAUUAUGAGGCCUGAGUCGCAGUUGAGUUUGAAAUUUGUAUUUAAUUUCACAGUGACCUAGAGCUAAGGUGCUCCCGGUUGUGGCAAUAGGAGC: 0.437
CAAAAUUUGUCAUUUUGGGUGUCAACAGCUAAAUGGUCUGGUUUUUACCCCUGUUUUGCCUUUUUUGCAAUAAAAUUAUUUCCAAAAAACAUACAUUUCCUAUCAAUCAU: 0.771
AAAACUCACCAUGAAAUGAAAGAAUACUCAGGCUUUGCAGGAGUUAGCCGACCACGAGGAACCUUGUUUCGAAUUAGAGGCAGAGGAAGAGCCAGAGGAGUUUUUGCUGG: 0.446
AGAAAGUCUCUUGACUUAAGUUCUGAGACUCCAAAGACUGCACAUAAGUUUUAGACAUACAAGUGUCUAUCUCAAAGCAGAAGCAGAGAAAACAGAAAGAAGCUACAACA: 0.275
UUUUUACGCAGCCAUACACUUACUUUAAUCUAACUCAUUCUGUGGCUAGGAUUGAUAUAGGAAUCAACCUAUGUGAUUUGCUUUAGGAGAAAUUAAAAGGUAUAUUCUUA: 0.637
UUGAUCUGUUCAACAAAUAUUUACUAAACACUUCUAAGCUAACAUUAGGGCAGUGACUGAGGUGGAAACCCAGCUCUUUAGACAGCUGUCAUCCUAGGAUAGCUUCCUGG: 0.965
GGAAAAAGCACAAGAAGCGUGAGAGAUACCGCCAUUCCUGGAGACAAAGCCCACCUGCUCAUUCUCGUAGCUUUAAAGAAAAAGAAAAAGGAAAAAUAAGGAAAACUGCA: 1.75
ACUUUUCUUCAUGGGGCAAAGUCUGCCUCUUCUGCCAGGCAGUUCCCAUUUGCCCCUGUCCAGACUGUUUCUUUUGGCUUAGACCAUAAUCCUCUGCUGCCCGGGGCAUU: 0.239
GAGCGUGGGGCCCCCAGGCCCCACCAGCACCGUCCUCCCCUAAUGAGGGGCCCUGCCGAGGCAUCAGCUGCUCUGCUCAGUUAGUUUUUAUUCCCGGGGUACCAAGCAGC: 0.227

For quick reference, copied from above (series 2):
UCACUUUAGAGGAGGAUCUGAUGGAUAUGGCAGUGGACGUGGAUUUGGGGAUGGCUAUAAUGGGUAUGGAGGAGGACCUGGAGGUGGCAA: -0.761
CUGUGCUACACAUCGUAUGUACCGAAUCGGGUUUUUUUGGGUUUUUUUGGGGUUUUUUUGGGAAAGUAUUAUGUUACGCCGUUCGGAUCU: -0.157
GUCCUGUGCUACACAUCGUAUGUACCGAAUCGGGGAAAAAGGGAAAAAGGGAAAAAGGGAAAGUAUUAUGUUACGCCGUUCGGAUCUGCA: 0.122
CUCAAGUCCUGUGCUACACAUCGUAUGUACCGAAUCGGGAAGGGAAGGGAAGGGAAAGUAUUAUGUUACGCCGUUCGGAUCUGCACUUCC: 1.18
GCAGGAAGUAAAAACAAAUGGAAAUGCUUCGGAUAGUGGCAGGGGUGGGGGUUGCUAAGGAAAGGGUGGGAUGCGAGUGGGUAAAGAGUU: 1.47
UAACUUUAGAGGAGGAUCUGAUGGAUAUGGCAGUGGAAGUGGAUUUGGGGAUGGCUAUAAUGGGUAUGGAGGAGGACCUGGAGGUGGCAA: -0.734
AAGUCCUGUGCUACACAUCGUAUGUACCGAAUCGGAAAGGAAAAAAAGGUUUUUGGAAAGUAUUAUGUUACGCCGUUCGGAUCUGCACUU: -0.165
UGUCCAGCUCUGAAGGGCAAAGUGCAGAAGAUCCUAAUCUGGAAGUGGGGUCAGCCACCAUCUCCCACACCAGUGCCUCGGCCUCCAGAU: -0.0753
